Measurements gathered from unrelated publications.
Several values in a cell are separate wells, animals, samples, runs or records. ± marks the error that the study gave.
T1: RNA, tetracycline-neomycin hybrid riboswitch; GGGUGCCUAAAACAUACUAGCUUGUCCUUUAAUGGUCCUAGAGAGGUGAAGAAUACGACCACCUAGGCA
T2: RNA, 2'-deoxy at 37-40 (Fusobacterium nucleatum); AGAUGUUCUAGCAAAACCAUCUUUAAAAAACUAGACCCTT
UniProt Q64663, sequence (whole entry, unmodified, looked up): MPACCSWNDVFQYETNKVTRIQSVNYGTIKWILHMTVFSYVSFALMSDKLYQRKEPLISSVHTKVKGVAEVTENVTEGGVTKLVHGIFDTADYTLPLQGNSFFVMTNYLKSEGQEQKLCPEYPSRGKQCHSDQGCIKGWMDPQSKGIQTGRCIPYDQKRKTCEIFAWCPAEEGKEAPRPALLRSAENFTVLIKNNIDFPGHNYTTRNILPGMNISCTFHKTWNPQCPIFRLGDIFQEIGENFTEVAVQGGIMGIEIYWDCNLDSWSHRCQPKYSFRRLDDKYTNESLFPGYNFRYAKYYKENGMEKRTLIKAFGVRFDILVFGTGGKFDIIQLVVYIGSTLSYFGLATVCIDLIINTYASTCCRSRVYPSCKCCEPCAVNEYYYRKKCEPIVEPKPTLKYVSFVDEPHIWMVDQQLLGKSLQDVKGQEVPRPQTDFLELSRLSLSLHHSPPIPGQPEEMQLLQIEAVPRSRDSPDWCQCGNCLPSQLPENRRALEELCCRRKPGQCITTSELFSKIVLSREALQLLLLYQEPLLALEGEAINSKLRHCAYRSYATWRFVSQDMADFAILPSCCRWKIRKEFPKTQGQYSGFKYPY
UniProt P51575, sequence (whole entry, unmodified, looked up): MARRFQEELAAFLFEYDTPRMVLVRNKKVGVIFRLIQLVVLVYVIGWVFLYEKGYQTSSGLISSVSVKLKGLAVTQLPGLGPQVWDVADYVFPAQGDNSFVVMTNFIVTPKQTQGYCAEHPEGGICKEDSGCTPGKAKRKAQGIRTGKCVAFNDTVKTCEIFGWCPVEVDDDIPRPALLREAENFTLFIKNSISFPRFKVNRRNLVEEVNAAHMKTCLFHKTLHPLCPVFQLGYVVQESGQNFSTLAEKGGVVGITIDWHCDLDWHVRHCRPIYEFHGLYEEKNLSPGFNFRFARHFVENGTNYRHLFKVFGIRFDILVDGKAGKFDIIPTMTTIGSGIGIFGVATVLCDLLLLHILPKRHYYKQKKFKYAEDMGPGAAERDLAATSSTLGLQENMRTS
UniProt Q9UBL9, sequence (whole entry, looked up): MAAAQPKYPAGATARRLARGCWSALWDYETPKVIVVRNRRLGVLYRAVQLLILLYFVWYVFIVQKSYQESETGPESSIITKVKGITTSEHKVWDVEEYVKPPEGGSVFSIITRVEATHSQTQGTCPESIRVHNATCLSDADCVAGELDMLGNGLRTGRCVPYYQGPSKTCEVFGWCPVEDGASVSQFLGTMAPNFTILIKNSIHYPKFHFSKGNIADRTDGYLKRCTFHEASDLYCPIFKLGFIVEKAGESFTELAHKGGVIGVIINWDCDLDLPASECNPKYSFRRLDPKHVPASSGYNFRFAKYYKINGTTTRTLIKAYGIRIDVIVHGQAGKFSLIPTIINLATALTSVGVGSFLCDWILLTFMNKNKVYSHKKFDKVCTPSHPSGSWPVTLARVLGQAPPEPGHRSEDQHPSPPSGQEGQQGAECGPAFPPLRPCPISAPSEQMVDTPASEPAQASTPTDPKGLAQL
UniProt P31641, sequence (whole entry, unmodified, looked up): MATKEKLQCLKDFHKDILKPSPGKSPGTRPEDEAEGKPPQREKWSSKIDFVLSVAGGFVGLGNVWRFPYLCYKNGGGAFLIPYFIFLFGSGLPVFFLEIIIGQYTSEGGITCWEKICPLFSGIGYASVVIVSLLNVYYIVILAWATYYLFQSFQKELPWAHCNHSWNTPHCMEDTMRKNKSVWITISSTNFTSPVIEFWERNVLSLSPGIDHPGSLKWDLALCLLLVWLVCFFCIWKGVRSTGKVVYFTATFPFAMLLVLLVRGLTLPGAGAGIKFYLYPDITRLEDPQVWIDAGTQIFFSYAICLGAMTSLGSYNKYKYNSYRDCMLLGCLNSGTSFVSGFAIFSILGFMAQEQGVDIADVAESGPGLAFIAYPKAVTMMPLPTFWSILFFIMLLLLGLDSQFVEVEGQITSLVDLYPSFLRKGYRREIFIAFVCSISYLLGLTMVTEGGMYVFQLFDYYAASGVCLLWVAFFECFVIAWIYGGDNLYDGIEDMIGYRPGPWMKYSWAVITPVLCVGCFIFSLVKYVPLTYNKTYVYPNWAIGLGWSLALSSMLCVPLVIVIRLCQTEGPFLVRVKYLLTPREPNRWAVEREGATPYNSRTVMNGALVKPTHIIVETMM
UniProt P0A8T7, sequence (whole entry, looked up): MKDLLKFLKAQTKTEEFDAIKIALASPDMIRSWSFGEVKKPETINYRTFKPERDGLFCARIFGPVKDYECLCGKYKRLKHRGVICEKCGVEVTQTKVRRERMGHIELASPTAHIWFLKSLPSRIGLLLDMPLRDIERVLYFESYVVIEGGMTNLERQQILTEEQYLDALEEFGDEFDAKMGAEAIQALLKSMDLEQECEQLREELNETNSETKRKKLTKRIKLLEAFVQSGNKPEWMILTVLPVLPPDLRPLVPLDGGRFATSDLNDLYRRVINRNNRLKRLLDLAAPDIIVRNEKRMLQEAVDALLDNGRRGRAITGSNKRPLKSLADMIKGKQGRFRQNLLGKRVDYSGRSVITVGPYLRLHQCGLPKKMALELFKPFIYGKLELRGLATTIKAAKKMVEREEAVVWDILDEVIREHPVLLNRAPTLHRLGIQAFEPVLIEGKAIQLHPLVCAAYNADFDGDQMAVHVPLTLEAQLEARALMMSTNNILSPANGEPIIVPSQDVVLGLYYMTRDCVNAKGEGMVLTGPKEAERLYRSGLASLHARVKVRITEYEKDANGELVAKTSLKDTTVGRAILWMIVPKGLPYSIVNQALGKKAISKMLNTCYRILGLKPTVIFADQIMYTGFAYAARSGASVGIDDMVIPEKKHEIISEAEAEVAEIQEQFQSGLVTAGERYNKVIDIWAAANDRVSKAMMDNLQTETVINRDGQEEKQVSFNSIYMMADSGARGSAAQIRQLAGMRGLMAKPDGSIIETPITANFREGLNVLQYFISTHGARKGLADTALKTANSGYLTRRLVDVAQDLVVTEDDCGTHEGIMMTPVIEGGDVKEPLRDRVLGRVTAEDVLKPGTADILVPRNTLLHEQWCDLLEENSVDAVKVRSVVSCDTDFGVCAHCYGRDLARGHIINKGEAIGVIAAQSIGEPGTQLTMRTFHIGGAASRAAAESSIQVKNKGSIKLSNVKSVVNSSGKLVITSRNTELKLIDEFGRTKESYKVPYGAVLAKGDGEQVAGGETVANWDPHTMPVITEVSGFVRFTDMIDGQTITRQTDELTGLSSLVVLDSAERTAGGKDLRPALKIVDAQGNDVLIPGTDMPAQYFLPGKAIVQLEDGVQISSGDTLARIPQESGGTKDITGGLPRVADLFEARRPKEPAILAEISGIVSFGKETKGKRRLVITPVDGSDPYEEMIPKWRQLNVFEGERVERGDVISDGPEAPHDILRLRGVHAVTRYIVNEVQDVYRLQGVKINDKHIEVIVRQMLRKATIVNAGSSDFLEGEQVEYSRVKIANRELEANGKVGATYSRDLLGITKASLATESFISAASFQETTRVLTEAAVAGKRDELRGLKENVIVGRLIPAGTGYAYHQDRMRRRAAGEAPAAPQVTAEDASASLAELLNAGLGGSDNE
UniProt Q92207, sequence (whole entry, looked up): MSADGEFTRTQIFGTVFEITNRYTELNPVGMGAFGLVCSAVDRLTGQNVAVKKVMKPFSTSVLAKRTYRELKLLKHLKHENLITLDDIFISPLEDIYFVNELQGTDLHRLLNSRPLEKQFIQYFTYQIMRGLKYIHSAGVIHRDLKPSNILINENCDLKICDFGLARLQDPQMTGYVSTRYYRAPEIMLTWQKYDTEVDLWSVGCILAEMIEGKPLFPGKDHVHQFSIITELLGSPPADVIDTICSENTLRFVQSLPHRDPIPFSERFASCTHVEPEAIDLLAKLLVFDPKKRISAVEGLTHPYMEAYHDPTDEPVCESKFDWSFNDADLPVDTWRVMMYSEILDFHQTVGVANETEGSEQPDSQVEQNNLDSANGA
UniProt Q96NY8, sequence (whole entry, looked up): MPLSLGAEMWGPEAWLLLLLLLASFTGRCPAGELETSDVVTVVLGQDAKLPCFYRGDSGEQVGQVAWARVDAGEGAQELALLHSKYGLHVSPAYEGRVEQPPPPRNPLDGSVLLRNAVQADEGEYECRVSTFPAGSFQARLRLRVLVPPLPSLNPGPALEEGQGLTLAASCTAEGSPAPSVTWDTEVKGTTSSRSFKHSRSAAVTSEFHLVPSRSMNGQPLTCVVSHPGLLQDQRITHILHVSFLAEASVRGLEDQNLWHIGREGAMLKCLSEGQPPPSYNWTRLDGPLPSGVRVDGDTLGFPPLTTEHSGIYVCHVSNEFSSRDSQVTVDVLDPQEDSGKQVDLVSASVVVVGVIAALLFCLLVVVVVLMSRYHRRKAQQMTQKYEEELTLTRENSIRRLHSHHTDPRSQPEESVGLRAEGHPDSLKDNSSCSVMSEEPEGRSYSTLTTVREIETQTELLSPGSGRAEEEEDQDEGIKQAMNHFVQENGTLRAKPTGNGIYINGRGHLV
UniProt P22736, sequence (whole entry, looked up): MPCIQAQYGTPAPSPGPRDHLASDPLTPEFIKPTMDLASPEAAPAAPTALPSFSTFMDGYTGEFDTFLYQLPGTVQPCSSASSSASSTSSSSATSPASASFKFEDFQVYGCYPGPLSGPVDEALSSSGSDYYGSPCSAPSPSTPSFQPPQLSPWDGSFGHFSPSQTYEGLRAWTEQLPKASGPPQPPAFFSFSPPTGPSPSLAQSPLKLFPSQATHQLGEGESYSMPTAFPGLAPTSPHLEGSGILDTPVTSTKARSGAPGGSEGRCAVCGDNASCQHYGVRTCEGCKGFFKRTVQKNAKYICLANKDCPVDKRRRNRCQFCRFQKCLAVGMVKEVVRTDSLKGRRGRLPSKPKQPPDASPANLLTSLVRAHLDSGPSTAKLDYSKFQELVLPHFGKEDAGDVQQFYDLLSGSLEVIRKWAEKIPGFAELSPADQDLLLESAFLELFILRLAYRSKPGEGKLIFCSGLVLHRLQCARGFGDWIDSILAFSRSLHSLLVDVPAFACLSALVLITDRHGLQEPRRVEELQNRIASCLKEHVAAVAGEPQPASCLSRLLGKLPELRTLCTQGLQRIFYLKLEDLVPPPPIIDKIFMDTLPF

Structure (SMILES)	target	test	test system	conditions	scale	quantity	result
CN(C)C(=O)C(CCN1CCC(O)(c2ccc(Cl)cc2)CC1)(c1ccccc1)c1ccccc1	Calcium-activated potassium channel subunit alpha-1, with LRRC26 γ1 subunit (KCNMA1, Homo sapiens, UniProt Q12791)	BK current, inside-out patch clamp	excised membrane patch	0.1 µM, γ1 subunit coexpressed, added: nominally 0 Ca2+ cytosolic		effective gating valence	1.17 elementary charges
Nc1ncnc2c1ncn2[C@@H]1O[C@H](COP(=O)(O)CP(=O)(O)OP(=O)(O)O)[C@@H](O)[C@H]1O	P2X purinoceptor 1 (P2RX1, Homo sapiens, UniProt P51575, E282A)	saturation binding	HEK293	25 nM		specific binding	1070 CCPM and 756 CCPM
NC[C@@H]1O[C@H](O[C@H]2[C@@H](O)[C@H](O[C@@H]3[C@@H](O)[C@H](N)C[C@H](N)[C@H]3O[C@H]3O[C@H](CN)[C@@H](O)[C@H](O)[C@H]3N)O[C@@H]2CO)[C@H](N)[C@@H](O)[C@@H]1O	T1, RNA, tetracycline-neomycin hybrid riboswitch	ITC		25 °C, Mg2+ 10 mM, Na+ 100 mM, no tetracycline		Kd	0.0536 µM
Nc1ncnc2c1ncn2[C@@H]1O[C@H](COP(=O)(O)OP(=O)(O)OP(=O)(O)O)[C@@H](O)[C@H]1O	P2X purinoceptor 7 (P2rx7, Rattus norvegicus, UniProt Q64663, I214A/Q143A)	ion current, agonist, two-electrode voltage clamp	Xenopus laevis oocytes	100 µM	baseline: highest concentration response	normalized current	0.12 and 0.15 and 0.19
Nc1ncnc2[nH]cnc12	T2, RNA, 2'-deoxy at 37-40 (Fusobacterium nucleatum)	MST		apparent		Kd	> 500 µM
Nc1ccn([C@@H]2O[C@H](COP(=O)(O)OP(=O)(O)OP(=O)(O)O)[C@@H](O)[C@H]2O)c(=O)n1	DNA-directed RNA polymerase subunit beta' / DNA-directed RNA polymerase subunit beta (rpoC/rpoB, Escherichia coli, UniProt P0A8T7+P0A8V2)	RNA extension, rapid quench-flow	Escherichia coli, elongation complex, 6-MI template	200 µM, 25 °C, slow complex fraction		nucleotide addition rate	1.5 ± 0.3 s⁻¹
CC(C)C[C@H](NC(=O)[C@H](Cc1ccccc1)NC(=O)c1cnccn1)B(O)O	20S proteasome (Plasmodium falciparum, UniProt A0A5K1K7U1+Q8IJT1)	inhibitor, progress curve				kobs/[I]	57100 M⁻¹ s⁻¹
Oc1ccccc1-c1n[nH]cc1-c1ccnc2ccccc12	Mitogen-activated protein kinase HOG1 (HOG1, Candida albicans, UniProt Q92207)	kinase binding, MIB/MS competition	Candida albicans lysate	1 µM	baseline: DMSO, negative = stronger binding	log2 fold change	-0.11
CCCC[C@@H]1NC(=O)[C@H](Cc2ccc(O)cc2)NC(=O)[C@@H]2CCCN2C(=O)[C@H](CC(=O)O)NC(=O)[C@H](C)NC(=O)[C@H](Cc2ccccc2)NC(=O)[C@@H]2CSCCC(=O)N3CN(CN(C3)C(=O)CCSC[C@@H](C(N)=O)NC1=O)C(=O)CCSCCC(=O)N[C@@H](CC(C)(C)C)C(=O)N1CCC[C@H]1C(=O)N[C@@H](CCC(=O)O)C(=O)N[C@H](CCCCNC(=O)CCc1cn(CCOCCOCCOCCOCCOCCC(=O)N[C@H]3CSCCC(=O)N4CN5CN(C4)C(=O)CCSC[C@H](NC(=O)[C@@H](CC(=O)O)NC(=O)[C@H](Cc4cccc6ccccc46)NC(=O)[C@@H]4CCCN4C3=O)C(=O)N[C@@H](CCSC)C(=O)N[C@@H](CCCCNC(=N)N)C(=O)N[C@@H](CC(=O)O)C(=O)N[C@@H](Cc3c[nH]c4ccccc34)C(=O)N[C@@H](CO)C(=O)N[C@@H]([C@@H](C)O)C(=O)N3CCC[C@H]3C(=O)N3C[C@H](O)C[C@H]3C(=O)N[C@@H](Cc3c[nH]c4ccccc34)C(=O)N[C@H](C(N)=O)CSCCC5=O)nn1)C(=O)N1CCC[C@H]1C(=O)N[C@@H](Cc1ccc(O)cc1)C(=O)N2	Tumor necrosis factor receptor superfamily member 9/Nectin-4 (Homo sapiens, UniProt Q07011+Q96NY8)	reporter gene, agonist	HT-1376 coculture with reporter cells		baseline: background	Emax	39 fold
S=c1[nH]nc(-c2ccccn2)o1	P2X purinoceptor 2 (P2RX2, Homo sapiens, UniProt Q9UBL9)	calcium mobilization	MCF7 stably transfected	100 µM, added: ATP 100 µM		fluorescence increase	77.2 ± 1.67%
O=S(=O)(O)C1CCNCC1	SLC6A6 (Homo sapiens, UniProt P31641, G62A)	binding, microscale thermophoresis		500 µM, room temperature, added: 50 nM labelled protein	higher = more binding	normalised MST signal	-0.00405
CCN1CCN(c2cc(N3CCN(CC)CC3)nc(NCCNc3ccnc4cc(Cl)ccc34)n2)CC1	Nuclear receptor subfamily 4 group A member 1 (NR4A1, Homo sapiens, UniProt P22736)	reporter gene, NBRE reporter full-length		1 µM	baseline: vehicle	activation	0.89 ± 0.17 fold

A few entries again:
Structure (SMILES)	target	test	test system	conditions	scale	quantity	result
Nc1ncnc2[nH]cnc12	T2, RNA, 2'-deoxy at 37-40 (Fusobacterium nucleatum)	MST		apparent		Kd	> 500 µM
